Measurements pooled from the literature.
Each numbered part is a random draw from the data of one study; scales do not carry over between parts. Substitutions count along the parent as printed.

Sample 1
Target: CCND3, cyclin fold, Cln2 fusion (human)
Method: yeast growth competition, sequencing
Medium: yeast
Setting: weak parent motif
Reference: not given
Reading: higher = stronger binding
Quantity: normalised enrichment score
Parent: BRCA2 docking peptide (human); PSIKRNLLNEFDR; partner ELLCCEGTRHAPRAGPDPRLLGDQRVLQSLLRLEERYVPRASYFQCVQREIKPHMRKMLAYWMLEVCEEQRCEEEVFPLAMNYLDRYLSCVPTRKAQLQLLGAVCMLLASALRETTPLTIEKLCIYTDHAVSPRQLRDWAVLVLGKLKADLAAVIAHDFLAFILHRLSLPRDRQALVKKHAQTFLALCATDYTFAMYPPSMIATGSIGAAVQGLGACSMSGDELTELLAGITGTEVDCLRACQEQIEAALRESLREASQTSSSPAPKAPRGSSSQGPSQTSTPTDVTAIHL
PSIKRNLPNEFDR [L8P]: 0.0784
PSIKRNLNNEFDR [L8N]: 0.0376
PSIKRNLLNEFWR [D12W]: 0.21
PSIKRNLLNAFDR [E10A]: 0.0499
PSIKRNLLFEFDR [N9F]: -0.0178
PSIKRNLLNEFDE [R13E]: 0.108
PSIKRNLLMEFDR [N9M]: 0.0139
PSIMRNLLNEFDR [K4M]: 0.171

Sample 2
Partner: ARF4 660-788 (Arabidopsis thaliana, UniProt Q9ZTX9)
Method: two-hybrid
Reference: out of 4 tests
Reading: higher = firmer interaction
Quantity: positive tests
B1: ARF2 727-859 (Arabidopsis thaliana, UniProt Q94JM3); chain TKTNSSRSCTKVHKQGIALGRSVDLSKFQNYEELVAELDRLFEFNGELMAPKKDWLIVYTDEENDMMLVGDDPWQEFCCMVRKIFIYTKEEVRKMNPGTLSCRSEEEAVVGEGSDAKDAKSASNPSLSSAGNS
B2: IAA34 (Arabidopsis thaliana, UniProt Q9C5X0); chain MYCSDPPHPLHLVASDKQQKDHKLILSWKKPTMDSDPLGVFPNSPKYHPYYSQTTEFGGVIDLGLSLRTIQHEIYHSSGQRYCSNEGYRRKWGYVKVTMDGLVVGRKVCVLDHGSYSTLAHQLEDMFGMQSVSGLRLFQMESEFCLVYRDEEGLWRNAGDVPWNEFIESVERLRITRRNDAVLPF
B3: IAA32 (Arabidopsis thaliana, UniProt Q8RYC6); chain MDPNTPADFFKGSSKFHTYYSQTKKGGGVIDLGLSLRTIQHETYLPPARMIGLDGYGELIDWSQPSYNSITQLKSEDTGHQRLAQGYYNNEGESRGKYAYVKVNLDGLVVGRKVCLVDQGAYATLALQLNDMFGMQTVSGLRLFQTESEFSLVYRDREGIWRNVGDVPWKEFVESVDRMRIARRNDALLPF
B4: ARF1 538-665 (Arabidopsis thaliana, UniProt Q8L7G0); chain SRQIRSCTKVHMQGSAVGRAIDLTRSECYEDLFKKLEEMFDIKGELLESTKKWQVVYTDDEDDMMMVGDDPWNEFCGMVRKIFIYTPEEVKKLSPKNKLAVNARMQLKADAEENGNTEGRSSSMAGSR
B5: IAA33 (Arabidopsis thaliana, UniProt Q9FKM7); chain MNSFEPQSQDSLQRRFHQDNSTTQQPRDTTTPFIPKPASKNHNNSNSSSGAAGRSFQGFGLNVEDDLVSSVVPPVTVVLEGRSICQRISLDKHGSYQSLASALRQMFVDGADSTDDLDLSNAIPGHLIAYEDMENDLLLAGDLTWKDFVRVAKRIRILPVKGNTRQVKRNE
Target sequence (chain): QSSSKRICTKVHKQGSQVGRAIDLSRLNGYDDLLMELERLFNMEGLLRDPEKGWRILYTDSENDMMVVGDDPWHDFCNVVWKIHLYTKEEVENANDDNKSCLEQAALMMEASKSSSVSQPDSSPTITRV
B1 (ARF2 727-859): 1
B2 (IAA34): 2
B3 (IAA32): 0
B4 (ARF1 538-665): 0
B5 (IAA33): 1

Sample 3
Target: Protein C-ets-1, full length (ETS1, Homo sapiens, UniProt P14921, residues 1-441)
Method: protein-binding microarray
Form: hairpin DNA
Medium: in vitro
Tested at: not given
Setting: whole hairpin DNA, median over replicate spots
Reference: not given
Reading: higher = stronger binding
Quantity: median fluorescence
Construct (chain): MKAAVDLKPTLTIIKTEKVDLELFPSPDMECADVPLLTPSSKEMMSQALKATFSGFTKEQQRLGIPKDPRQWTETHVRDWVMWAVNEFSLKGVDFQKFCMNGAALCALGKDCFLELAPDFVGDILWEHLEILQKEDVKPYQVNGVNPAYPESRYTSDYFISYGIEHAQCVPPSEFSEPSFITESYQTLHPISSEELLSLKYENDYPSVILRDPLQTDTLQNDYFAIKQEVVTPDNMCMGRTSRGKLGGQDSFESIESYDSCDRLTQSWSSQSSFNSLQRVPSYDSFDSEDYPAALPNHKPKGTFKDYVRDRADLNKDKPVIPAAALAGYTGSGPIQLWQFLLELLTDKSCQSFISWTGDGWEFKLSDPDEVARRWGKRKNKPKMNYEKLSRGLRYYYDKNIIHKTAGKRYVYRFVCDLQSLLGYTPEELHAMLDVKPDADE
GAGGCCACTCGGAAGTTGCCTCCTGGCAACTTCCGAGTGGCCTCACACTC (5mC at 8): 2210 a.u.
GAGGCCAGTCTGAAGTTGCCTCCTGGCAACTTCAGACTGGCCTCACACTC: 508 a.u.
GAGGCCAGCCGGACGTTGCCTCCTGGCAACGTCCGGCTGGCCTCACACTC: 2730 a.u.
GAGGCCCGTCGGAAGTTGCCTCCTGGCAACTTCCGACGGGCCTCACACTC (5mC at 37): 2420 a.u.
GAGGCCGGCCGGAAGTTGCCTCCTGGCAACTTCCGGCCGGCCTCACACTC (5mC at 38): 12300 a.u.
GAGGCCAGTCGGAAGCTGCCTCCTGGCAGCTTCCGACTGGCCTCACACTC (5mC at 16): 1670 a.u.
GAGGCCAGCCGGAAGTTGCCTCCTGGCAACTTCCGGCTGGCCTCACACTC: 9160 a.u.
GAGGCCAGTCCGAAGTTGCCTCCTGGCAACTTCGGACTGGCCTCACACTC: 543 a.u.

Further values, each from its own experiment
Parent: PafA, mature enzyme, eGFP fusion (Elizabethkingia meningoseptica, UniProt Q9KJX5); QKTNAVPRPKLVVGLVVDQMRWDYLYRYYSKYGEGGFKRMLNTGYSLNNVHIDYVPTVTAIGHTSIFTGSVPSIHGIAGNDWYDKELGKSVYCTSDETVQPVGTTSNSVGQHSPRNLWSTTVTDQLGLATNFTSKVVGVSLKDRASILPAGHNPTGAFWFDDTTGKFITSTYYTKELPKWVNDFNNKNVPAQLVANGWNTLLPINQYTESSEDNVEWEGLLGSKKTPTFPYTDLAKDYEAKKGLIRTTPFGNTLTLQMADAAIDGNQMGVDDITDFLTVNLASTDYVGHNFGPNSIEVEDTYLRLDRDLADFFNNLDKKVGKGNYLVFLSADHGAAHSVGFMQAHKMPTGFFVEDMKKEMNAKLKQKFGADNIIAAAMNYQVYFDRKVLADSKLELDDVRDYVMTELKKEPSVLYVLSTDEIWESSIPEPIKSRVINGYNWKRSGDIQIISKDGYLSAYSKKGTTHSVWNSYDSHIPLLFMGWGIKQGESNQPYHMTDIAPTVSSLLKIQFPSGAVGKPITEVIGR
S490V — oxyanion analog dissociation constant (tungstate, free oxyanion; microfluidic competitive inhibition; in vitro, cell-free expressed; not given, derived from inhibition constants, unchanged parent 2230 nM; lower = stronger binding): 2080 nM

Repeated from above (sample 2):
B5 (IAA33): 1
B1 (ARF2 727-859): 1
B2 (IAA34): 2
